Measured values of several laboratories.
Each numbered part is a random draw from the data of one study; scales do not carry over between parts. “And” joins repeats or separate records; there may be more than shown.

Series 1
Organism: Sarcocystis neurona
Read-out: parasite growth
Concentration: 10 µM
Time: 96 h
Setting: first screen
Baseline: untreated
Quantity: log2 fold change
CN(C)[C@@H]1C(O)=C(C(N)=O)C(=O)[C@@]2(O)C(O)=C3C(=O)c4c(O)cccc4[C@@](C)(O)[C@H]3C[C@@H]12: -0.5
CC(=O)/N=c1/sc(S(N)(=O)=O)nn1C: 0.0661
Cc1ccc(C)c(OCCCC(C)(C)C(=O)O)c1: -0.13
O=C(CCCN1CC=C(n2c(=O)[nH]c3ccccc32)CC1)c1ccc(F)cc1: -1.37
CC(=O)Nc1nnc(S(N)(=O)=O)s1: -0.17
Nc1nc(N)nc(-c2cc(Cl)ccc2Cl)n1: 0.31
C[C@@H]1C[C@H]2[C@@H]3CCC4=CC(=O)C=C[C@]4(C)[C@@]3(F)[C@@H](O)C[C@]2(C)[C@@]1(O)C(=O)CO: -0.18
CCCc1nc(C(C)(C)O)c(C(=O)OCc2oc(=O)oc2C)n1Cc1ccc(-c2ccccc2-c2nnn[nH]2)cc1: -0.09

Series 2
Compound: Cc1cc2c(C(N)=O)c(N)n(-c3c(C)ccc(O)c3C)c2nc1C
Quantity: inhibition
HuCCT-1; cell proliferation; 1.52 nM: -2.31% and 1.39% and 0.37%
RKO; cell proliferation; 41.15 nM: -3.28% and -4.84%
RKO; cell proliferation; 13.72 nM: 2.12% and -1.51%
LN-229; cell proliferation; 41.15 nM: -7.95% and -15.9% and -12.8%
Proto-oncogene tyrosine-protein kinase Src (SRC, Homo sapiens, UniProt P12931); kinase activity, inhibitor, HTRF; 1.111 µM: 99.7%
NCI-H1568; cell growth; 3333.33 nM: 74.8%
HCC1569; automated immunoblotting, refers to: CDK1 phospho-Thr14; concentration not given, 0 h after washout: 75%
NCI-H1568; cell proliferation; 370.37 nM: 17.2% and 17.4%

Series 3
Structure (SMILES): C=CCc1ccc(O)c(-c2ccc(O)c(CC=C)c2)c1
Read-out: chloride current
Quantity: normalized current
ANO1 del476-501/F628A: Anoctamin-1 (ANO1, Homo sapiens, UniProt Q5XXA6, del476-501/F628A)
Chain of UniProt Q5XXA6 (whole entry, unmodified, looked up): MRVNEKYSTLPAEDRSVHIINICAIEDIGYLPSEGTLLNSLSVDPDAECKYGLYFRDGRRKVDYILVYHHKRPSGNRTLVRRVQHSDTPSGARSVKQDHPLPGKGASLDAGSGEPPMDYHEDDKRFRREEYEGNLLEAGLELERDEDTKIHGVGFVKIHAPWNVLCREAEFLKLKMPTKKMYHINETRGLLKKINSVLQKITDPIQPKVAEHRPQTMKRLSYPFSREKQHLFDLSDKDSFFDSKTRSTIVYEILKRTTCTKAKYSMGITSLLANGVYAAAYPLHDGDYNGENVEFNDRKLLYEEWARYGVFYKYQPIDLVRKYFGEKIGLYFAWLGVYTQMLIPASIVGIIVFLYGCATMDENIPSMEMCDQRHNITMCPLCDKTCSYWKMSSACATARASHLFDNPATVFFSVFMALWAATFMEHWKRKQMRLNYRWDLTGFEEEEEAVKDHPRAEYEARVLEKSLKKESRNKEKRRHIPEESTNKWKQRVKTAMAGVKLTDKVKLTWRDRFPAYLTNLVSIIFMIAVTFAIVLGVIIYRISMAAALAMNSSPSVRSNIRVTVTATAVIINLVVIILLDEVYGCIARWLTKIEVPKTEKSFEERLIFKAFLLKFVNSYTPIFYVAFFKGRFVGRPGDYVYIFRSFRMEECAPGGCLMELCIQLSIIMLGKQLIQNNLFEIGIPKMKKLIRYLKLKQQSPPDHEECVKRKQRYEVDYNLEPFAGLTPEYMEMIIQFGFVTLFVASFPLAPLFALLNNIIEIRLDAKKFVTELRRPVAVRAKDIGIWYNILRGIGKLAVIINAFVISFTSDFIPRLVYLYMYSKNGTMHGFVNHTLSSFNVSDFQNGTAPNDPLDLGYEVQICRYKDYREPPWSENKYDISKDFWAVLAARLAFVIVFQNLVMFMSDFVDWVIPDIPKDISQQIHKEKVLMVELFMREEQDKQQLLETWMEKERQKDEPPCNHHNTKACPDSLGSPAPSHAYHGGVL
ANO1 del476-501/F628A; whole-cell voltage clamp; 10 µM, I-V at 40 mV, together with: 4 µM Ca2+: 0.25
ANO1 del476-501/F628A; whole-cell voltage clamp; 10 µM, I-V at -40 mV, together with: 4 µM Ca2+: -0.24
Anoctamin-1 (ANO1, Homo sapiens, UniProt Q5XXA6, del476-501); whole-cell voltage clamp; 1 µM, wild type, I-V at 100 mV, together with: 4 µM Ca2+: 0.974
ANO1 del476-501/F628A; whole-cell voltage clamp; 1 µM, concentration-response at -20 mV, together with: 4 µM Ca2+: -0.19
Anoctamin-1 (ANO1, Homo sapiens, UniProt Q5XXA6, del476-501/K629A); inhibitor, inside-out patch clamp; 10 µM, K603A mutant at -100 mV: -0.612
Anoctamin-1 (ANO1, Homo sapiens, UniProt Q5XXA6, del476-501/R541A); inside-out patch clamp; 10 µM, membrane voltage -40 mV: -0.243
ANO1 del476-501/F628A; whole-cell voltage clamp; 100 µM, concentration-response at 80 mV, together with: 4 µM Ca2+: 0.124
Anoctamin-1 (ANO1, Homo sapiens, UniProt Q5XXA6, del476-501/E659A/K629A); inside-out patch clamp; 10 µM, membrane voltage -40 mV: -0.371

Mixed results
CC[C@H](C)c1nc2cc(Nc3ccnc4ccc(S(=O)(=O)C(C)C)cc34)ccc2s1.Cl — viability (HT-29; necroptosis protection, CCK-8; 10 µM, together with: TNF-α SMAC mimetic zVAD): 73.4% and 92% and 73% and 77.6%

For quick reference, copied from above (series 3):
Anoctamin-1 (ANO1, Homo sapiens, UniProt Q5XXA6, del476-501/R541A); inside-out patch clamp; 10 µM, membrane voltage -40 mV: -0.243
ANO1 del476-501/F628A; whole-cell voltage clamp; 100 µM, concentration-response at 80 mV, together with: 4 µM Ca2+: 0.124
Anoctamin-1 (ANO1, Homo sapiens, UniProt Q5XXA6, del476-501/E659A/K629A); inside-out patch clamp; 10 µM, membrane voltage -40 mV: -0.371
